Assay results from different studies.
Protocols differ between the studies behind these lines. Numbers after ± are the reported error.
Chain of UniProt P21397 (whole entry, looked up): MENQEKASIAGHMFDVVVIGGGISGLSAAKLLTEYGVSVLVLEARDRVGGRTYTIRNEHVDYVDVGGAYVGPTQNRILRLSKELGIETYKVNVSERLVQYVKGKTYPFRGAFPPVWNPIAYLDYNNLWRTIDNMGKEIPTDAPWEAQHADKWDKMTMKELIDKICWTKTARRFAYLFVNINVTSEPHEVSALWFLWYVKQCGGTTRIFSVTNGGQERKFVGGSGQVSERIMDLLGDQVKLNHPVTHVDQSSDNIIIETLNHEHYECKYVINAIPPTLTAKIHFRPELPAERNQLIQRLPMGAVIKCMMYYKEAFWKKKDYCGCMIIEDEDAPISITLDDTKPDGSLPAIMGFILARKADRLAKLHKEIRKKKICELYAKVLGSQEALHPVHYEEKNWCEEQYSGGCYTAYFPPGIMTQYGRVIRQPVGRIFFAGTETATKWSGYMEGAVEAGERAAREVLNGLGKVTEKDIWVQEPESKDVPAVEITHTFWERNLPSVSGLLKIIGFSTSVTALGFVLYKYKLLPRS
Chain of UniProt Q15418 (whole entry, looked up): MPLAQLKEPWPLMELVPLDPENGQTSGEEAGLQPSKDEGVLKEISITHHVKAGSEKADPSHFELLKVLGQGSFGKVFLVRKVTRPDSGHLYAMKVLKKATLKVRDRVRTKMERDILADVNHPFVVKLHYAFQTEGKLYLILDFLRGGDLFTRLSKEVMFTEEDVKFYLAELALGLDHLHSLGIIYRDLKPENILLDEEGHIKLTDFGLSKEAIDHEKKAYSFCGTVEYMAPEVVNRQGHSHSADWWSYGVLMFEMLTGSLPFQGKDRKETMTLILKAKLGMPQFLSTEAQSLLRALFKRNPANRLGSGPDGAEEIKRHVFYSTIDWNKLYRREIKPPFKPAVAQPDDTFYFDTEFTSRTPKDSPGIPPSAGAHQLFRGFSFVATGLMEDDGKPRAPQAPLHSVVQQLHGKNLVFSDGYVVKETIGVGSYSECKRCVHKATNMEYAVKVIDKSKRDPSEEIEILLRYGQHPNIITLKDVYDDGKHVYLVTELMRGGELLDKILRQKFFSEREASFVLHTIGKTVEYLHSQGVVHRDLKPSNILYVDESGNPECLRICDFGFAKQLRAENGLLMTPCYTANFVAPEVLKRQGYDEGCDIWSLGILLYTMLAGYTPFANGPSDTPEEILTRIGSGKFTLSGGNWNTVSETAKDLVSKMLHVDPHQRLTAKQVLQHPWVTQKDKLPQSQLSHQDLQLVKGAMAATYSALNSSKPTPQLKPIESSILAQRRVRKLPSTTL
Chain of UniProt Q13177 (whole entry, looked up): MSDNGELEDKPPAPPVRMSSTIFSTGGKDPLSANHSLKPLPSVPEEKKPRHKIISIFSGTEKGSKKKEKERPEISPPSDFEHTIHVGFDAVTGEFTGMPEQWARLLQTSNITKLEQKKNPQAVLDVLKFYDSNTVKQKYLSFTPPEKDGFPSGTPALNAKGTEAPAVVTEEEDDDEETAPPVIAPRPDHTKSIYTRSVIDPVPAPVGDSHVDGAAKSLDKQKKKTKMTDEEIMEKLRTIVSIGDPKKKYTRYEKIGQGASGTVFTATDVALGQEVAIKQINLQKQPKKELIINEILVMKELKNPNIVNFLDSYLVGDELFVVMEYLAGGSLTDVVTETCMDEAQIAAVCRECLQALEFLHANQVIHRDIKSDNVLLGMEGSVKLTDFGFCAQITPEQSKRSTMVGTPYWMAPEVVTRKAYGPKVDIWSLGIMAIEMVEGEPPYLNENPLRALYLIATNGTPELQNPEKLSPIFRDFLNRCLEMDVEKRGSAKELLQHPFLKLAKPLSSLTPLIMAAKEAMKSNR

Compound | target or system | test | test system | setting | how to read | quantity | value
N#Cc1ccc2c(c1)[C@H]1CCCN(C(=O)c3ccc4[nH]cnc4c3)[C@H]1C2 |  |  | human | 20 mg, end of trial | relative to: baseline | ACTH level change | -0.1 pmol/L
Cn1cc(-c2ccc(-c3cncc(Cl)c3N3CCC4(CCNC4=O)CC3)cc2)cn1 | COLO 205 | gene expression, microarray, measured: CXCL16 mRNA |  | concentration not given, 2 h | relative to: untreated cells | log2 fold change | 2.37
NCc1cc2c(cc1F)C(=O)N(C1CCC(=O)NC1=O)C2 (stereo not drawn) | MAOA (Homo sapiens, UniProt P21397) | substrate, LC-MS/MS | recombinant enzyme | 10 µM, 0 h, pH 7.4 |  | concentration | 11 µM
Cc1cc(Nc2ccc(S(F)(F)(F)(F)F)cc2)n2nc(C(C)(F)F)nc2n1 | Plasmodium vivax | 12-lead Holter ECG | human malaria patients | oral, 600 mg, QTc above 450 ms |  | patients with QTcF above threshold | 0%
CC[C@H](C)[C@H](NC(=O)[C@H](Cc1ccc(O)cc1)NC(=O)[C@@H](NC(=O)[C@@H](N)CCCN=C(N)N)C(C)C)C(=O)N[C@@H](Cc1c[nH]cn1)C(=O)N1CCC[C@H]1C(=O)N[C@@H](Cc1ccccc1)C(=O)O | chymotrypsin | LC-MS |  | 20 µM, 120 min, pH 7.4, 25 °C |  | proteolytic conversion | 99.9 ± 0.3%
CC(C)(C(=O)N1CCOc2c(C#N)cncc2C1)C(F)F |  |  | human, both sexes | oral, 30 mg single dose |  | subjects with thrombophlebitis TEAE | 16.7%
CN1CCN(c2ccc(Nc3ncc4cc(C#N)c(=O)n(C5CCCC5)c4n3)cc2)CC1 | PAK2 (Homo sapiens, UniProt Q13177) |  |  |  |  | IC50 | 2.58 µM
CC[C@H]1[C@@H](O)[C@@H]2[C@H](CC[C@]3(C)[C@@H]([C@H](C)CCNC(=O)NS(=O)(=O)c4ccc(C(C)(C)C)cc4)CC[C@@H]23)[C@@]2(C)CC[C@@H](O)C[C@@H]12 | ABCB1 (Homo sapiens, UniProt P08183) | substrate | human, plasma | dose not given, alone |  | AUC(0-inf) mean | 0.377 µg·h/mL
c1coc(-c2n[nH]cc2-c2ccnc3ccccc23)c1 | orf19.4575 Candida albicans | kinase binding, MIB/MS competition | Candida albicans lysate | 1 µM | relative to: DMSO | log2 fold change | -0.26
CC[C@@H]1[C@H](F)C(=O)N[C@@H]1COc1nccc2cc(C(N)=O)c(OC)cc12 | RPS6KA1 (Homo sapiens, UniProt Q15418) | ATP probe binding, KiNativ profiling, measured: domain 1 activation loop | THP-1 cell lysate | 0.04 mM |  | inhibition | 18%
Nc1nnc(-c2cccc(Cl)c2Cl)c(N)n1 | UGT1A, humanized | glucuronidation, Michaelis-Menten kinetics | Tg-UGT1 mice, female, DMSO control group, pooled liver microsomes | 30 min, pH 7.2 |  | Km | 200 ± 20 µM
CC1(C)CCC(c2ccc(Cl)cc2)=C(CN2CCN(c3ccc(C(=O)NS(=O)(=O)c4ccc(N[C@H](CCN5CCOCC5)CSc5ccccc5)c(S(=O)(=O)C(F)(F)F)c4)cc3)CC2)C1 | C2BBe1 monolayers |  |  | 50 % saturated solubility, 2 h, basolateral fractions 1-10, with: oleic acid/monoolein micelles |  | drug secreted with TRL | 7.6 ± 6.1%
CC(C)C[C@H](NC(=O)C[C@H](O)[C@H](CC(C)C)NC(=O)[C@H](Cc1c[nH]cn1)NC(=O)CNC(=O)[C@@H](NC(=O)[C@H](C)NC(=O)[C@H](Cc1c[nH]c2ccccc12)NC(=O)[C@H](CCC(N)=O)NC(=O)[C@@H](Cc1ccccc1)NC(=O)COCCOCCNC(=O)CCC(C(=O)O)N1CCN(CC(=O)O)CCN(CC(=O)O)CCN(CC(=O)O)CC1)C(C)C)C(N)=O (stereo partly drawn) [lutetium-177 labelled] |  |  | BALB/c nu/nu mice, bone | intravenous, 500 pmol, 1 h, with: PA 300 µg |  | tissue uptake | 0.2 ± 0.09 %ID/g
CC1(C)OB(c2cccc(CNS(=O)(=O)c3cc(C(=O)Nc4cc(F)c(F)c(F)c4)ccc3F)c2)OC1(C)C | hepatitis B virus |  | HepAD38 |  | relative to: CC50 over EC50 | selectivity index | 12.1
Cc1cc(N)c2c(OCC(C)(C)C(=O)NC(C)C)cccc2n1 | Salmonella typhimurium | reverse mutation, plate incorporation | TA98 | 500 µg/plate, without S9 |  | mean revertant colonies | 25 colonies/plate
